Results of several laboratories.
A part holds a random share of what one study measured.

Series 1 — technique: competition protein-binding microarray; molecule type: double-stranded DNA, one strand shown; medium: in vitro; tested at: 2 µM; with: Cbf1 competitor, 0.05 µM; direction: higher = stronger binding; quantity: fluorescence intensity
Target: Phosphate system positive regulatory protein PHO4, full length, GST-tagged (PHO4, Saccharomyces cerevisiae, UniProt P07270, residues 1-312)
Notes: whole 60-bp probe, lowest competitor level
Target sequence (chain): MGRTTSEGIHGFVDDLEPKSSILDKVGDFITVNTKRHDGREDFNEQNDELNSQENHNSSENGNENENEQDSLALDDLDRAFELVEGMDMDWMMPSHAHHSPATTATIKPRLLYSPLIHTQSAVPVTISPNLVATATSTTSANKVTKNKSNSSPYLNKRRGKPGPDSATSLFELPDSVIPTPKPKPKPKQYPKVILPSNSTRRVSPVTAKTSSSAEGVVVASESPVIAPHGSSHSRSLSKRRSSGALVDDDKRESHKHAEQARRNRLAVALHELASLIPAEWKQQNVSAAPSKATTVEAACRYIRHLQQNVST
GTCTTGTCTCATTGGTGAGTGGGTGTCCCCACTTCAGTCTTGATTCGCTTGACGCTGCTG: 5190 a.u.
CCTCCTCTACCGTTCGACATGACAAAAAGGCGTTGGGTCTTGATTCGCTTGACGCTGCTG: 4810 a.u.
CTTCTGTAAATTTGCGCTGTGGGTGGACGCGCCCCGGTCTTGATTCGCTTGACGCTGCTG: 4540 a.u.
CTAACGAAGGTTTGAGGCGTGGGTGACAAGCCAAGTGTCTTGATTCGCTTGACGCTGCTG: 7690 a.u.
AAAGAACTACTGTCCCACGTGGATTCGATCCCTCCCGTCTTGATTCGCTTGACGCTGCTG: 19700 a.u.
ACCTATATGAATTCTCATGTGTCTCGTCTGATGTTCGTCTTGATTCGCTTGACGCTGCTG: 5960 a.u.
AAAGCGGTAATTTGTCACCGTACTTCACATATCTATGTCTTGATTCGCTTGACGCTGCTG: 3360 a.u.
AGCTGCCGGCTCGGTCAGGTGGACGAAACAAAAAAGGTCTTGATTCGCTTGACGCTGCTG: 4250 a.u.
GAGGTTGGCCTTTTGCACGTAGCTGTTGCTGTTGCTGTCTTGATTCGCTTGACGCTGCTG: 6320 a.u.
ACAAGTGCTTTAAATGATGTGACGGGTTATTCTGGAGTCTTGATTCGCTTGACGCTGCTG: 4390 a.u.
AAAGCGGTAATTTGATTTGTGGGTGCAGATATCTATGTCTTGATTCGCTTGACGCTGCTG: 4820 a.u.
CTAACGAAGGTTTGGCGGGTGGGTGACAAGCCAAGTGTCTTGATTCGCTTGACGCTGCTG: 4300 a.u.
CTAACGAAGGTTTGGGAGGTGGGTGACAAGCCAAGTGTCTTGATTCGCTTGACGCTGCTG: 4040 a.u.
AGCAGGATTTATAGGCGCGTGCGGACAGCCTTAGACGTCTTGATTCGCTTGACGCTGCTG: 11900 a.u.
AGGTTAGGTGTCCATCACGTGCTAAAACCAGCGACTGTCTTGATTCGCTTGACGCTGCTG: 15400 a.u.
AAAGCGGTAATTTTTCACGTGGTCTCACATATCTATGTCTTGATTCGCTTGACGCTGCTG: 14000 a.u.
CTTCTGTAAATTTCTCACGTGTTTTGACGCGCCCCGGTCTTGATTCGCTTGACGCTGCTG: 11400 a.u.

Series 2 — technique: protein-binding microarray; molecule type: double-stranded DNA, one strand shown; medium: in vitro; tested at: 2200 nM top; notes: 60-bp whole probe; with: salmon DNA 0.4 mg/ml; baseline: random background probes; direction: higher = stronger binding; quantity: fitted relative affinity; shared flanks, not repeated: GCCTAGCAC … GTCTTGATTCGCTTGACGCTGCTG
Target: Interferon regulatory factor 7, full length, phosphomimetic (IRF7, Homo sapiens, UniProt Q92985, residues 1-503, S471D/S472D/S475D/S476D/S477D/S483D/S484D/S487D)
Residues (chain): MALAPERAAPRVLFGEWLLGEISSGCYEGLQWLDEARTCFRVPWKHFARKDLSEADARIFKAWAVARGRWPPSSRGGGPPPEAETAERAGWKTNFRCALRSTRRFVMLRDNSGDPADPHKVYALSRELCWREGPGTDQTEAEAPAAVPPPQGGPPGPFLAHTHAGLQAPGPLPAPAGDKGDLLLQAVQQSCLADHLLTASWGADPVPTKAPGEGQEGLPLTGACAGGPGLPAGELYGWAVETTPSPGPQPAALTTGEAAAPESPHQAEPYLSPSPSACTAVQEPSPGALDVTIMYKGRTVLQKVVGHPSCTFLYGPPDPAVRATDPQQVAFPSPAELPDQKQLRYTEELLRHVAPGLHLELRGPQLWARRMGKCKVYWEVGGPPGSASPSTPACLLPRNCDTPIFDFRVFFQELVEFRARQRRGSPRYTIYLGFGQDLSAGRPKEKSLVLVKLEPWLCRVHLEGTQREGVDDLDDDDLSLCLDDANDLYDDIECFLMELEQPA
TTAGGTCACCTTTTCCTTTAGTGCTAG: 1.49 z-score
TCAAATTTCCATTTTCTACTGTGCTAG: 3.16 z-score
TTAGGTATCGTGACTGGGTTAGTGCTA: 0.0484 z-score
GACGGACTGGGGTTTCGGGGCGTGCTA: 0.0198 z-score
TTAGATCTCAGTATCGATAAGTGCTAG: -0.0504 z-score
TTCGATATCGGGTATCGATTAGTGCTA: 0.846 z-score
GTCGGACTGGGGTATCGGGACGTGCTA: -0.755 z-score
ATTTTTTTGTAATCGAAATCTGTGCTA: 0.709 z-score
GACGATAGCAGTATCGAGACGTGCTAG: 0.0104 z-score
GACGATTTCAGTATCGAGATGTGCTAG: 0.881 z-score
TCATTTCTCTGGTTCTTACTGTGCTAG: 2.71 z-score
TTAGACTTCAGACTGGATTAGTGCTAG: -0.534 z-score
TTAGAAATCAGTCTCGATTAGTGCTAG: -0.211 z-score
TACTGCTGGAGCTCAAGAGCGTGCTAG: -0.48 z-score
TAATTTCCATTTTCTAAATTCGTGCTA: 4.13 z-score
GACGATATCCGGACTGGAGACGTGCTA: 0.25 z-score
AGAATTTCCACTTTGACTTAGTGCTAG: 1.79 z-score
TTAGGTCTCCTTCTCCCTTAGTGCTAG: 1.1 z-score
TTAGATTTCAGTTGCGATTAGTGCTAG: 1.35 z-score
AAGGTATTATTTATTGTAGCGTGCTAG: -0.121 z-score
GACGGTGTCGGTTTCGGGACGTGCTAG: 2.42 z-score
TTAGGACAGGGGACTGGGTTAGTGCTA: -1.05 z-score
CTGCCTTCAGAGCTGTCTGTGTGCTAG: 0.355 z-score

Series 3 — technique: RNA Bind-n-Seq; molecule type: RNA; medium: in vitro; tested at: 365 nM; baseline: no-protein control; direction: higher = stronger binding; quantity: RBNS enrichment (R)
Target: RNA binding protein fox-1 homolog 2, RRM domain, GST-SBP tag (RBFOX2, Homo sapiens, UniProt O43251-10, residues 100-194)
Notes: natural RNA segment, single round, ends assumed
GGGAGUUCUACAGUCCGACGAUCUCCUAAGGAGUAGAGAAUGGCACUGGGGAGGUCUGGAUGGAUCUGGUUUGUGUAGGAGUUCCCUGUAGAUAAAUUACUGGUCCCCCAACCACUAUCCCCAGUAUGUAAUGUGGAAUUCUCGGGUGCCAA: 4.38
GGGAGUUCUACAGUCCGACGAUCAUAGGCCCCUUGGACCGUGGGGAUGGCGGCCCUGAGAUUCUGUCAGUGGGACCACCCUGGGCCUCCUUUCUACCUCCACUCAGCACCCUGUUGGCCAAGGAGAAUUUCUGUGGAAUUCUCGGGUGCCAA: 0.484
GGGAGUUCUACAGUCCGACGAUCUCUUCCCUUCCCUGAUGCCAGGGGCACCAGACUGAUUCUGAGGCACAAAUAAAAGCGGUUUCAAACCGAUGCAUUUCUACUUAACUUUAUUGGGGAGAAGUGCCCACAGGUGGAAUUCUCGGGUGCCAA: 0.503
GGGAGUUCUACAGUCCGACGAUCUCAUGAUCCCCUCCACCUGCACUGGUGUGCAUUACUGAAGCAAGGGUCCUGUGGACAUCUUGCAUUUUGGGCACUGCUAGGGGGUCUGGGCUGCUUGGAAGGAGCCAUGGUGGAAUUCUCGGGUGCCAA: 0.381
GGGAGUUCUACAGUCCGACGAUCGACAUCCACCUCCAGAGCAACACUGGCCCCACAGUAAAAGAGGAAGUCUUGUACCUCAGGCAGGCCCAUCUAGAGCUAUUGCUCCUUCCCACAGCAAAGGUAUUGUGGAUUGGAAUUCUCGGGUGCCAA: 0.439
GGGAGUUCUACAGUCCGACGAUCUUCUUUGAUUUAUUUUGCCAAUGGCAAAAAGACAAGACCUCGUUAGCACUGAGGAUUCUUGUUCCCUUGCCUUGCCCACUGCUCCCGACCUGAAGGCUGCCAACACUCCUUGGAAUUCUCGGGUGCCAA: 0.452
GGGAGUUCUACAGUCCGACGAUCUAGUGUGUCCCUAUUAUAAAUGCAUUGGAGAAGUAUUUUUAUGAGACUCUUUACUCAGGUGCAUGGUUACAGCCCACAGGGAGGCAUGGAGUGCCAUGGAAGGAUUCGCCUGGAAUUCUCGGGUGCCAA: 1.8
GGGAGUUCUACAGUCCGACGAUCUGCGAGUUUUUUGUUUACUUUUCAGGUUUGUACUACAAGGUUUAAUAAUAAAAACAAAGUUUUUUGGACAUUUGUCUGUCUUGUGGAAGAUGACUGAAUGGAAUGAGCUCUGGAAUUCUCGGGUGCCAA: 0.686
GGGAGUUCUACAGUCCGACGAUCUUUGAGAACCAAGUAAAACAAAACCACUGGGAGGAGUCUAUUUUAAAGAAUUCGGUUGAAAAAAUAGAUCCAAUCAGUUUAUACCCUAGUUAGUGUUUUGCCUCACCUAAUGGAAUUCUCGGGUGCCAA: 0.867

Series 4 — technique: RNA Bind-n-Seq; molecule type: RNA; medium: in vitro; tested at: 200 nM; notes: whole 134-nt RNA, ends assumed; with: 150 mM LiCl; baseline: input library; direction: higher = stronger binding; quantity: log2 enrichment; all molecules: 7-deaza-guanosine replaces G
Target: Fragile X messenger ribonucleoprotein 1, C-terminal low-complexity region (Fmr1, Mus musculus, UniProt P35922)
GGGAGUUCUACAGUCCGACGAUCAAGUCCUGUGCUACACAUCGUAUGUACCGAAUCGGGUUUGGGUUUUUGGGAAAGGGAAAGUAUUAUGUUACGCCGUUCGGAUCUGCACUUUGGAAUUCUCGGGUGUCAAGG: -0.888
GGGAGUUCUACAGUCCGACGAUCGUCCUGUGCUACACAUCGUAUGUACCGAAUCGGGGAAAAAGGAAAAAGGGAAAAAGGGGAAAGUAUUAUGUUACGCCGUUCGGAUCUGCAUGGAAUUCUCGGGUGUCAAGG: 0.546
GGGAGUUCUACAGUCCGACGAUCCUUGACCCUCAACACCAACCAUGGGCAUAUCCUGGUGGAUUACUCCAAGAACCUGGUGACGGAGGACGUGAUGCGGAUGCUGGUGGACUUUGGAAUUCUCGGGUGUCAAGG: -2.41
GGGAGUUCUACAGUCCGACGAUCUAAAUUCAUCUGAAAAUGGUGAGGACAGGCACAAACGCAAAGAAAGAAAGUCAUCAAGAGGCAGAAGUCACUCAAGAUCUAGGUCUCGUGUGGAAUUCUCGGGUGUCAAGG: -2.45
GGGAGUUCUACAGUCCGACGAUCUAACUUUAGAGGAGGAUCUGAUGGAUAUGGCAGUGGAGGUGGAUUUGGGGAUGGCUAUAAUGGGUAUGGAGGAGGACCUGGAGGUGGCAAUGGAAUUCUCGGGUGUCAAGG: 0.535
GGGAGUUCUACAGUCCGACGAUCUGGAGAGGGAAGUCCCAAUGGUGCUAGAAUGGUGCUGCAGUGGCAGAAGACGGCUCACAAGUGAGGUCUGGAAGAACAACAGGGAAGACAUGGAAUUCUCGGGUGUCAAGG: 0.491
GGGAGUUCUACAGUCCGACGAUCCCUGUGCUACACAUCGUAUGUACCGAAUCGGGGAAAAAAAGGGGUUUUUUUGGGGAGGGGAAAGUAUUAUGUUACGCCGUUCGGAUCUGCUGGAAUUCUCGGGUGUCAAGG: -1.55
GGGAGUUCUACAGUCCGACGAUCUAACAUUAGAGGAGGAUCUGAUGGAUAUGGCAGUGGACGUGGAUUUGGGGAUGGCUAUAAUGGGUAUGGAGGAGGACCUGGAGGUGGCAAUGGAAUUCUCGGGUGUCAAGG: 0.474

A few entries again (series 1):
CTTCTGTAAATTTGCGCTGTGGGTGGACGCGCCCCGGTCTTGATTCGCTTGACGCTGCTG: 4540 a.u.
AGGTTAGGTGTCCATCACGTGCTAAAACCAGCGACTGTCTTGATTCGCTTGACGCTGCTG: 15400 a.u.
CTTCTGTAAATTTCTCACGTGTTTTGACGCGCCCCGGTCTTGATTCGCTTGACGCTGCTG: 11400 a.u.
CCTCCTCTACCGTTCGACATGACAAAAAGGCGTTGGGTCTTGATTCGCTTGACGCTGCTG: 4810 a.u.
ACAAGTGCTTTAAATGATGTGACGGGTTATTCTGGAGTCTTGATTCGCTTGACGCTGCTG: 4390 a.u.
AAAGAACTACTGTCCCACGTGGATTCGATCCCTCCCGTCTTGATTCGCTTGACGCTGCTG: 19700 a.u.
AAAGCGGTAATTTGATTTGTGGGTGCAGATATCTATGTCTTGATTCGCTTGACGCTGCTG: 4820 a.u.
ACCTATATGAATTCTCATGTGTCTCGTCTGATGTTCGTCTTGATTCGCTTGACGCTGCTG: 5960 a.u.
AGCAGGATTTATAGGCGCGTGCGGACAGCCTTAGACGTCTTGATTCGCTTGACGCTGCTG: 11900 a.u.
